Assay results collected from several papers.
Compare with care: the assays were run in different laboratories. “And” joins repeats or separate records; there may be more than shown. ± gives the spread as reported.
GABA-A receptor; alpha-1/beta-3/gamma-2: GABA-A receptor; alpha-1/beta-3/gamma-2 (Homo sapiens, UniProt P14867+P18507+P28472)
UniProt Q01959, sequence (whole entry, unmodified, looked up): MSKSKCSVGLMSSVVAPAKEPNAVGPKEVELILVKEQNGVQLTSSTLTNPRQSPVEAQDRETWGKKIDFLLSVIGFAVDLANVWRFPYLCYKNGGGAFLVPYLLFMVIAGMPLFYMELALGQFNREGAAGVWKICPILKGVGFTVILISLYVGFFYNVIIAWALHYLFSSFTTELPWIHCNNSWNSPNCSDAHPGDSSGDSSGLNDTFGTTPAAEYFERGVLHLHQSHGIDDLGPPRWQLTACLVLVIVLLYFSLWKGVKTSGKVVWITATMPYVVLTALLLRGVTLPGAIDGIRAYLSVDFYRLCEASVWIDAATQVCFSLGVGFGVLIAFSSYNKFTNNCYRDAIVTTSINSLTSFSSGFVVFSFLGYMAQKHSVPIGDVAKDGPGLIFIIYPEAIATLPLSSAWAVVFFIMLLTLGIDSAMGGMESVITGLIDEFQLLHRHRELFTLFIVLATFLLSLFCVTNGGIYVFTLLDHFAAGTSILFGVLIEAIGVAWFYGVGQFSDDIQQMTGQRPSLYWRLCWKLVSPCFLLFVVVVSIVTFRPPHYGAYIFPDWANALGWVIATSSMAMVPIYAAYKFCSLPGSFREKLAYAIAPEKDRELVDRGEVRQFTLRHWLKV
UniProt P18507, sequence (whole entry, looked up): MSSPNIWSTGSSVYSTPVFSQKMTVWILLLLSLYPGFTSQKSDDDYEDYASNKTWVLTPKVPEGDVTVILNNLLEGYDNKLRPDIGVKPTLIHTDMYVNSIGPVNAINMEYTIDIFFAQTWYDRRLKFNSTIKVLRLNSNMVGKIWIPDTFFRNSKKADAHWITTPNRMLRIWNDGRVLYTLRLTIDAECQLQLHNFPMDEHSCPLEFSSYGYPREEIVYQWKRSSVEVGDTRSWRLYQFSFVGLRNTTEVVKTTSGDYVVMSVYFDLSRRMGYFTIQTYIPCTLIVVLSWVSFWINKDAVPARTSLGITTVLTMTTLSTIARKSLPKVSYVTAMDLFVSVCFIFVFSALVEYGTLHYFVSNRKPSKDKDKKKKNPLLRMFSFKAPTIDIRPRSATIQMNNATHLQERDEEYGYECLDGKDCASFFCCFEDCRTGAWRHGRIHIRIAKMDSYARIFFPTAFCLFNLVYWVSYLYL
UniProt P28472, sequence (whole entry, looked up): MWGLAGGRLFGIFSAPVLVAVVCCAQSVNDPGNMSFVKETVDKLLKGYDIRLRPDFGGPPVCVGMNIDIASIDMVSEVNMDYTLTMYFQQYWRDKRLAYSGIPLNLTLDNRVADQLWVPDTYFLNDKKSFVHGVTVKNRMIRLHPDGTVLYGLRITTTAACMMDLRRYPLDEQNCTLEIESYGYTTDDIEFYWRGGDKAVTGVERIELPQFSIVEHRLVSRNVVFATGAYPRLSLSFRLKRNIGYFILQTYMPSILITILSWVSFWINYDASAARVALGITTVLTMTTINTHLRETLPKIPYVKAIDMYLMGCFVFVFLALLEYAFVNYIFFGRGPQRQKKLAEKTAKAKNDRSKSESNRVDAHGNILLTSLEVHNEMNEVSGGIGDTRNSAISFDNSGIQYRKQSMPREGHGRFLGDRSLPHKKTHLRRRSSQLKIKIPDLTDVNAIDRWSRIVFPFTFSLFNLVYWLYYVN
UniProt P14867, sequence (whole entry, looked up): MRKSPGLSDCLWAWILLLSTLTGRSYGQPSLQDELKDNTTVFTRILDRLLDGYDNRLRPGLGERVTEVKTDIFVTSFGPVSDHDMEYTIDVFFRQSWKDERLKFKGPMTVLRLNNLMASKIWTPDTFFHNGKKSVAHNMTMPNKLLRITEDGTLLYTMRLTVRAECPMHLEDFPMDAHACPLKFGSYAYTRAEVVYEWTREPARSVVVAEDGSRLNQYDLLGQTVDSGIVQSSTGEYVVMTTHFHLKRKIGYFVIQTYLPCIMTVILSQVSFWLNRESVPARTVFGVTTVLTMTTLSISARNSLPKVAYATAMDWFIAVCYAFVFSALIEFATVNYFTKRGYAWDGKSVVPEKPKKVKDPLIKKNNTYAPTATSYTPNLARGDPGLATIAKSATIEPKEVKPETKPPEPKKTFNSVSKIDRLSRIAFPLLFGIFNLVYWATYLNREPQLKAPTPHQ
UniProt P31644, sequence (whole entry, looked up): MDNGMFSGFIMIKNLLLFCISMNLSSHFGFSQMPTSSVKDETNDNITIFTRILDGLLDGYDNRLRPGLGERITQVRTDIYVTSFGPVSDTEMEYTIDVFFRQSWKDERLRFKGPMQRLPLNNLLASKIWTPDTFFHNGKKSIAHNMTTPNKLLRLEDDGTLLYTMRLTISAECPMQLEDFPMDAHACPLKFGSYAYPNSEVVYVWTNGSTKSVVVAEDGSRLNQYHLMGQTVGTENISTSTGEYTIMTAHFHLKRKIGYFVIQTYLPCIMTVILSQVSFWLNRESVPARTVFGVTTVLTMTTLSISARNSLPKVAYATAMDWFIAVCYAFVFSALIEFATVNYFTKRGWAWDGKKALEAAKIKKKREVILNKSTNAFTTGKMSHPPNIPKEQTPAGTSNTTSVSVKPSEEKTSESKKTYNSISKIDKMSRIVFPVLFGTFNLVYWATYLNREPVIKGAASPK
UniProt Q92993, sequence (whole entry, looked up): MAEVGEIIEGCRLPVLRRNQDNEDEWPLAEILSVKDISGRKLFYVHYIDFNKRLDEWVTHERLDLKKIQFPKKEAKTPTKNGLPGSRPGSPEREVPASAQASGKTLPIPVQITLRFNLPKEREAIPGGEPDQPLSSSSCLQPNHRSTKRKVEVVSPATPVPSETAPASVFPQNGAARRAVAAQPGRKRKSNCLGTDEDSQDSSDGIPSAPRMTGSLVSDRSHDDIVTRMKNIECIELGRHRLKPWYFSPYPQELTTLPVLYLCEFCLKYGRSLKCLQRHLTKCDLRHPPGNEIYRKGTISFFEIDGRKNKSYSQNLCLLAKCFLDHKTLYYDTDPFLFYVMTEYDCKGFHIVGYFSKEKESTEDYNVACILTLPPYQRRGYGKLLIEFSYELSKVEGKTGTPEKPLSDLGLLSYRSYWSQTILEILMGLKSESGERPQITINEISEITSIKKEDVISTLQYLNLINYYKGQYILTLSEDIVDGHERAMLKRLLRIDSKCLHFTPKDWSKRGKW
UniProt Q9Y5Y3, sequence (whole entry, looked up): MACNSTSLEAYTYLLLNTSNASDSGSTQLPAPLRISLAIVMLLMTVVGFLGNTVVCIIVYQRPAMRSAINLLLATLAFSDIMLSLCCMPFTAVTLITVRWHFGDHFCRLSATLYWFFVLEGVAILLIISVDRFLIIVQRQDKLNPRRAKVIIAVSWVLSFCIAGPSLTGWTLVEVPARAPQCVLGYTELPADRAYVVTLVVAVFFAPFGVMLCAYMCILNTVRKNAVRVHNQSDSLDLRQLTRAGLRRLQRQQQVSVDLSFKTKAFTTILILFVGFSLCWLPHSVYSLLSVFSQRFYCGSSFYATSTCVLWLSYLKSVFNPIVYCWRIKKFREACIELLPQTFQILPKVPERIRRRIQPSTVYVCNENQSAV
UniProt P9WIL3, sequence (whole entry, looked up): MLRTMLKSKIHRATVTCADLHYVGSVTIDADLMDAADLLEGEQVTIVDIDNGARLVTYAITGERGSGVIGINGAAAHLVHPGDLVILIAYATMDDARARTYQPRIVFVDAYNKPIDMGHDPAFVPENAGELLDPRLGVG
UniProt P41143, sequence (whole entry, looked up): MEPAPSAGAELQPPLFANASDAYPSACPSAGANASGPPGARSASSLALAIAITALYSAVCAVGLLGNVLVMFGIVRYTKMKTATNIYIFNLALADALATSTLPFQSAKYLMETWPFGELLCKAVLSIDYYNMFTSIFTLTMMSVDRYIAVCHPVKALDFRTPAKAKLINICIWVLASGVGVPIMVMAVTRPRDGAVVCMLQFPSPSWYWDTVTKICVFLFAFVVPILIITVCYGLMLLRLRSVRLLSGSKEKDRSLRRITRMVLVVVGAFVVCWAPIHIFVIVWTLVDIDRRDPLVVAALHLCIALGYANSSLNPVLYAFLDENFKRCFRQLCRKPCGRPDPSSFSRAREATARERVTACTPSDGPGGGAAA
UniProt P28223, sequence (whole entry, looked up): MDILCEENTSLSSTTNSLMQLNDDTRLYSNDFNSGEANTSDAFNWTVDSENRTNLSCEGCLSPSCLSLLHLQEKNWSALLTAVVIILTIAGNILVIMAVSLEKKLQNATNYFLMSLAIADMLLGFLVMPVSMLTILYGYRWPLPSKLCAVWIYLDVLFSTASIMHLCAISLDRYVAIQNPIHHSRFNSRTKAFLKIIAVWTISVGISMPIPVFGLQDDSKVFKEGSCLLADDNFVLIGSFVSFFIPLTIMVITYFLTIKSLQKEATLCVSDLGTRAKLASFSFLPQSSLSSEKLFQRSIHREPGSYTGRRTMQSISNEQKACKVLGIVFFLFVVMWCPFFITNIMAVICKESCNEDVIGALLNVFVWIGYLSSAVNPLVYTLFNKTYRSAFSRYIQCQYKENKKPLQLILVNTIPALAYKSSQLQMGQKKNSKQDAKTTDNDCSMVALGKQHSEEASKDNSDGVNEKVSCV
UniProt P14060, sequence (whole entry, looked up): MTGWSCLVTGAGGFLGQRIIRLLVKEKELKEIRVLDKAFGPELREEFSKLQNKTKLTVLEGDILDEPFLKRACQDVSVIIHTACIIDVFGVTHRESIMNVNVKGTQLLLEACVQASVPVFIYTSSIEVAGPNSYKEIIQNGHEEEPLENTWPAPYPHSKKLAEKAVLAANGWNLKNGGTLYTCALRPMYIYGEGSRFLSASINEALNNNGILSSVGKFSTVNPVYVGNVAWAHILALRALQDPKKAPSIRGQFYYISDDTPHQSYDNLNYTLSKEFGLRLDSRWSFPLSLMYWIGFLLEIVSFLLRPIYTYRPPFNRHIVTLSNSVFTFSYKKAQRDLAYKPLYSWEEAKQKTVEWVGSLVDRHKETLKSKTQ

For c1ccc2cc([C@]34CNC[C@H]3C4)ccc2c1, the dopamine uptake was 96.6% and 82.3% and 85% (SLC6A3 (Homo sapiens, UniProt Q01959, V152A); inhibitor, [3H]dopamine uptake; 100 pM, V152A mutant; reference: no inhibitor).
For OC[C@H]1N[C@H](CO)[C@@H](O[C@H]2O[C@H](CO)[C@@H](O)[C@H](O)[C@H]2O)[C@@H]1O, PNP inhibition read “no inhibition” (purine nucleoside phosphorylase; enzyme activity; concentration not given, pH 7.5, coupling enzyme control, added: MESG 1 mM).
The selectivity ratio of Brc1ccc2c(c1)C(c1ccccn1)=NCc1c(-c3cnco3)ncn1-2 is reported as 1.42 (Gamma-aminobutyric acid receptor subunit gamma-2 / Gamma-aminobutyric acid receptor subunit alpha-5, with β3 subunit (Homo sapiens, UniProt P18507+P31644); [3H]flunitrazepam binding; reference: α5β3γ2 over α1β3γ2 GABA-A).
With Oc1cccc([C@]23CCC[C@H]([C@H]2O)N(CC=Cc2ccccc2)CC3)c1 the efficacy was 51 ± 3.7% (Oprd1 (Rattus norvegicus, UniProt P33533); agonist; C6 cells expressing delta opioid receptor; 10 µM; reference: DPDPE).
Oc1ccc2c3c1O[C@H]1[C@@H](O)CC[C@@]4(O)[C@@H](C2)N(CC2CCC2)CC[C@]314: “log2 fold change” -0.089 (Probable G-protein coupled receptor 45 (GPR45, Homo sapiens, UniProt Q9Y5Y3); β-arrestin recruitment, TANGO luminescence, measured: GPR45; concentration not given; reference: basal luminescence).
For Cl.O=C(N[C@H]1CC[C@@]2(O)[C@H]3Cc4ccc(O)c5c4[C@@]2(CCN3CC2CC2)[C@H]1O5)c1ccc(Br)s1, the selectivity ratio was 80.8 (OPRD1 (Homo sapiens, UniProt P41143); radioligand binding; CHO membranes; reference: Ki µ over Ki δ).
For Cn1cc2cc(C(F)(F)c3nnc4ccc(-c5cnn(C6CC6)c5)nn34)c(F)cc2n1, “Kd fold change” read “not detected” (MET (Homo sapiens, UniProt P08581, C1091S/C1146S/D1228V/K1232C); concentration not given; reference: wild type).
C[C@]12CC[C@H](O)CC1=CC[C@@H]1[C@@H]2CC[C@]2(C)C(=O)CC[C@@H]12 has a Km of 3.7 µM (HSD3B1 (Homo sapiens, UniProt P14060); substrate).
O=C(O)c1cnccn1 gave an inhibition of 4.8% (Aspartate 1-decarboxylase (panD, Mycobacterium tuberculosis, UniProt P9WIL3); β-alanine production; 200 µM, 40 min, 298 K, added: L-aspartate 2 mM).
N#CSC1CC2(C(=O)NC(=O)NC2=O)c2ccccc21 (stereo not drawn) has an Emax of 20% (GABA-A receptor; alpha-1/beta-3/gamma-2; 1000 µM).
CC(C)N(CCC(C(N)=O)(c1ccccc1)c1ccccn1)C(C)C (stereo not drawn) has an inhibition of 0% (Genome polyprotein, NS3 helicase domain (Hepatitis C virus genotype 1b, UniProt Q9WMX2); DNA binding, inhibitor; hepatitis C virus; 100 µM, added: Cy5-dT15 DNA).
For CNC1(c2ccccc2Cl)CCCCC1=O (racemic), the inhibition was -1% (CHRNA7 (Homo sapiens, UniProt P36544); radioligand binding, antagonist, radioligand displacement; 30 µM).
Under “SPR binding response”, CCOc1ccccc1C(=O)Nc1ccc(Cl)c(C(F)(F)F)c1 is recorded as 0.133 RU (KAT5 (Homo sapiens, UniProt Q92993); SPR; 0.0078 µM; higher = more binding).
CN1C(=O)N(C)C(=O)C2(CCc3ccccc32)C1=O has an Emax of 7% (GABA-A receptor; alpha-1/beta-3/gamma-2; 300 µM).
COc1cc(CCNC(C)c2ccccc2O)c(OC)cc1C#N (stereo not drawn) gave an Emax of 91% (HTR2A (Homo sapiens, UniProt P28223); receptor activation, agonist).

Some of these lines once more:
C[C@]12CC[C@H](O)CC1=CC[C@@H]1[C@@H]2CC[C@]2(C)C(=O)CC[C@@H]12 has a Km of 3.7 µM (HSD3B1 (Homo sapiens, UniProt P14060); substrate).
Under “SPR binding response”, CCOc1ccccc1C(=O)Nc1ccc(Cl)c(C(F)(F)F)c1 is recorded as 0.133 RU (KAT5 (Homo sapiens, UniProt Q92993); SPR; 0.0078 µM; higher = more binding).
